Measurements of several laboratories.
Protocols differ between the studies behind these lines. Values joined by “and” are separate records of one study, mostly repeats; a detail may differ. Numbers after ± are the reported error.

SMILES | test | test system | setting | fraction unbound
Cc1cc(=O)n(-c2ccccc2)n1C | equilibrium dialysis | human plasma |  | 0.99
NC/C(=C\F)COc1cccc(Cn2c(=S)[nH]c(=O)c3[nH]cnc32)c1 |  | dog plasma | 10 µM, 5 (unit not given) | 0.25
Cc1ncc(Cl)cc1NCc1ccc(C(=O)N[C@@H](CC2CCCC2)C(=O)NC2CC2)s1 | rapid equilibrium dialysis | mouse plasma | 1 µM, 4 h | 0.0001
CC(F)(F)CN1Cc2cc(C(F)(F)F)ncc2C2=CN=C(NCc3c(F)ccc4c3CCO4)N3C=NC(C1=O)C23 (centres unmarked) |  | rat plasma |  | < 0.01
COc1ccc(Nc2ccnc3ccc(-c4ccc(S(=O)(=O)N5CCOCC5)cc4)cc23)cc1Cl |  | human plasma |  | 0.003
c1cc(-c2ccc3ncnc(Nc4ncco4)c3c2)nc(N2CCOCC2)c1 |  | human plasma |  | 0.0051
O=C(NO)c1ccc(CN(c2cnccn2)c2cnccn2)cc1 |  | human plasma |  | 0.56
CCCC[C@@H]1NC(=O)[C@H](Cc2ccc(O)cc2)NC(=O)[C@@H]2CCCN2C(=O)[C@H](CC(=O)O)NC(=O)[C@H](C)NC(=O)[C@H](Cc2ccccc2)NC(=O)[C@@H]2CSCCC(=O)N3CN(CN(C3)C(=O)CCSC[C@@H](C(=O)N[C@@H](C)C(N)=O)NC1=O)C(=O)CCSC[C@H](NC(C)=O)C(=O)N[C@@H](CC(C)(C)C)C(=O)N1CCC[C@H]1C(=O)N[C@@H](CCC(=O)O)C(=O)N[C@H](CCCCNC(=O)CCc1cn(CCOCCOCCOCCOCCOCCC(=O)N[C@H]3CSCCC(=O)N4CN5CN(C4)C(=O)CCSC[C@H](NC(=O)[C@@H](CC(=O)O)NC(=O)[C@H](Cc4cccc6ccccc46)NC(=O)[C@@H]4CCCN4C3=O)C(=O)N[C@@H](CCSC)C(=O)N[C@@H](CCCCNC(=N)N)C(=O)N[C@@H](CC(=O)O)C(=O)N[C@@H](Cc3c[nH]c4ccccc34)C(=O)N[C@@H](CO)C(=O)N[C@@H]([C@@H](C)O)C(=O)N3CCC[C@H]3C(=O)N3C[C@H](O)C[C@H]3C(=O)N[C@@H](Cc3c[nH]c4ccccc34)C(=O)N[C@H](C(N)=O)CSCCC5=O)nn1)C(=O)N1CCC[C@H]1C(=O)N[C@@H](Cc1ccc(O)cc1)C(=O)N2 | ultracentrifugation | rat plasma |  | 0.37
CCCCC1=NC2(CCCC2)C(=O)N1Cc1ccc(-c2ccccc2S(=O)(=O)Nc2noc(C)c2C)c(COCC)c1 |  | plasma |  | 0.009
O=C(O)c1cn(-c2ccc(-c3ccc(C(=O)N4CCNCC4)cc3)cc2)cc(O)c1=O |  | human plasma |  | 0.64
CN1CCN(c2ccc(C(=O)Nc3n[nH]c4ccc(Cc5cc(F)cc(F)c5)cc34)c(NC3CCOCC3)c2)CC1 | equilibrium dialysis | cell medium with 10% FBS |  | 0.16
C=CC(=O)Nc1cc(Nc2nccc(-c3cn(C)c4ccccc34)n2)c(OCC(F)(F)F)nc1N(C)CCN(C)C | rapid equilibrium dialysis | human plasma | 0.2 µg/mL | 0.79% and 0.93% and 0.99%
C=CC(=O)Nc1cc(Nc2nccc(Nc3cc(Cl)c(F)cc3C(C)(C)O)n2)c(OC)cc1N1CC[C@@H](N(C)C)C1 | equilibrium dialysis | rat plasma | 5 µM, 18 h, pH 7.4 | 0.087 ± 0.011
C[C@@H]1CN(c2cccc(-c3ccc4ncnc(Nc5ncco5)c4c3)c2)C[C@H](C)O1 |  | human plasma |  | 0.002
N#C[C@@]1(c2ccc3c(N)ncnn23)O[C@H](CO)[C@@H](O)[C@H]1O |  | human plasma | 100 µM | 0.841
Cc1noc(C)c1Nc1ccnc2ccc(-c3ccc(S(=O)(=O)N4CCOCC4)cc3)cc12 |  | human plasma |  | 0.092
C[C@@H](O)[C@H](NC(=O)[C@H](Cc1ccc(O)cc1)NC(=O)[C@H](Cc1ccc(O)cc1)NC(=O)[C@H](CO)NC(=O)[C@H](CCCNC(=N)N)NC(=O)[C@H](Cc1c[nH]cn1)NC(=O)[C@@H](N)Cc1c[nH]c2ccccc12)C(=O)N[C@@H](Cc1c[nH]c2ccccc12)C(=O)N[C@@H](CC(N)=O)C(=O)NCCCC[C@H](NC(=O)[C@H](CC(N)=O)NC(=O)[C@H](Cc1c[nH]c2ccccc12)NC(=O)[C@@H](NC(=O)[C@H](Cc1ccc(O)cc1)NC(=O)[C@H](Cc1ccc(O)cc1)NC(=O)[C@H](CO)NC(=O)[C@H](CCCNC(=N)N)NC(=O)[C@H](Cc1c[nH]cn1)NC(=O)[C@@H](N)Cc1c[nH]c2ccccc12)[C@@H](C)O)C(N)=O |  | human serum albumin |  | 0.07
NC(=O)N1c2ccccc2C=Cc2ccccc21 | equilibrium dialysis | mouse plasma | 5 µM, 6 h | 0.335
CC#Cc1cncc(-c2ccc3c(c2)[C@@]2(N=C(C)C(N)=N2)[C@]2(CC[C@H](OC)CC2)C3)c1 | equilibrium dialysis | dog plasma | 6 h, pH 7.4 | 0.099
Clc1ccc(COc2cncc(-c3cnn(C4CCNCC4)c3)c2)c(Cl)c1 |  | mouse plasma |  | 0.0184
CCn1ncc2c1-c1cnc(N)c(c1)O[C@H](C)c1cc(F)ccc1-c1nn(C)nc1C2 | equilibrium dialysis | cell medium with 10% FBS |  | 0.82
CN1CCN(C2=Nc3cc(Cl)ccc3Nc3ccccc32)CC1 | ultrafiltration | rat plasma | 5 µM, 30 min | 0.09

SMILES | test | test system | setting | fraction unbound
O=C1C2N=CN3C(NCc4c(F)ccc5c4CCO5)=NC=C(c4cnc(C(F)(F)F)cc4CN1CC(F)F)C23 (centres unmarked) |  | mouse plasma |  | < 0.01
COc1cc2c3c(n(CCCN4CCOCC4)c(=O)c2cc1OC)-c1cc2c(cc1C3=O)OCO2 | equilibrium dialysis | dog plasma | 4300 ng/mL, 24 h, 37 °C | 0.039
O=S(=O)(c1ccc(-c2ccc3nccc(Nc4ccnnc4)c3c2)cc1)N1CCOCC1 |  | human plasma |  | 0.42
CC(C)(C)NC[C@H](O)COc1nsnc1N1CCOCC1 | equilibrium dialysis | human plasma |  | 0.715
Clc1ccc(Nc2ncnc3ccc(-c4cccc(N5CCOCC5)c4)cc23)cc1Cl |  | human plasma |  | < 0.0005
O=S(=O)(c1ccc(-c2ccc3nccc(Nc4ccc5[nH]nnc5c4)c3c2)cc1)N1CCOCC1 |  | human plasma |  | 0.034
CC(C)(O)c1ccccc1CC[C@@H](SCC1(CC(=O)O)CC1)c1cccc(/C=C/c2ccc3ccc(Cl)cc3n2)c1 | rapid equilibrium dialysis | 10% human plasma | 2 µM, 24 h, pH 7.4 | 3e-05
CC1(C)C(/C=C/C=C/C=C/C=C2\N(CCCCS(=O)(=O)O)c3ccc4ccccc4c3C2(C)C)=[N+](CCCCS(=O)(=O)[O-])c2ccc3ccccc3c21 |  | mouse serum | 8 h, 37 °C | < 0.1
COc1ccc2[nH]c([S+]([O-])Cc3ncc(C)c(OC)c3C)nc2c1 (centres unmarked) | rapid equilibrium dialysis | 10% human plasma | 2 µM, 24 h, pH 7.4 | 0.029
C=CC(=O)N1CC2(CCN(c3nc4c(c(-c5cc(O)cc6ccccc56)c3F)C[C@H]3C[C@@H]4C3(C)C)C2)C1 |  | mouse plasma |  | 0.03
CCc1nnc(Nc2ccnc3ccc(-c4ccc(S(=O)(=O)N5CCOCC5)cc4)cc23)s1 |  | human plasma |  | 0.018
CCOC(F)(F)c1nnc2cnc(-c3cnc(OCC(F)(F)F)c(F)c3)cn12 |  | mouse plasma |  | 0.081
C=C(F)C(=O)N1CCN(c2nc(OC[C@@H]3CCCN3C)nc3c2CCN(c2cccc4cccc(Cl)c24)C3)C[C@@H]1CC#N | equilibrium dialysis | human liver microsomes | 1 µM, 1 mg/mL microsomal protein | 0.04
CC(=O)CC(c1ccccc1)c1c(O)c2ccccc2oc1=O (centres unmarked) | equilibrium dialysis | female Balb/c mouse plasma | 2 µM, 6 h | < 0.01
Cc1cc(Nc2ccc(S(F)(F)(F)(F)F)cc2)n2nc(C(C)(F)F)nc2n1 | equilibrium dialysis | RPMI medium with 10% FBS | 24 h | 0.12 ± 0.0043
C1CCc2c(c(N3CCOCC3)nc3sc4c(N5CCNCC5)nnnc4c23)C1 | equilibrium dialysis | male Sprague Dawley rat plasma | 2 µM, 4 h, pH 7.4, 37 °C | 0.11
Cc1nc(Nc2ncnc3ccc(-c4cccc(N5CCOCC5)c4)cc23)oc1C |  | human plasma |  | 0.0007
CC(C)(C)c1cc(C(C)(C)C)c(NC(=O)c2c[nH]c3ccccc3c2=O)cc1O | rapid equilibrium dialysis | human, plasma | 6 h post-dose | ~0.046
O=C(O)Cc1ccccc1Nc1c(Cl)cccc1Cl | rapid equilibrium dialysis | 10% human plasma | 2 µM, 24 h, pH 7.4 | 0.0022
Clc1ccc(Nc2ncnc3ccc(-c4cccc(N5CCOCC5)c4)cc23)cc1 |  | human plasma |  | < 0.0017
Cc1ccccc1CN1C(=O)C2=C(CCN(Cc3ccccc3)C2)N2CCN=C12 | equilibrium dialysis | plasma | 3.865 mg/L | 0.0412
CN1CC(Oc2cnc(C#N)cc2-c2ccn3nc(NC(=O)C4CC4)cc3c2)C1 |  | rat plasma diluted 25% | 1 µM, 6 h, pH 7.4 | 0.49
